Assay results gathered from unrelated publications.
A part holds a random share of what one study measured.

Study 1
Target: RNA binding protein fox-1 homolog 2, RRM domain, GST-SBP tag (RBFOX2, Homo sapiens, UniProt O43251-10, residues 100-194)
Method: RNA Bind-n-Seq
Molecule type: RNA
Medium: in vitro
Tested at: 365 nM
Setting: natural RNA segment, single round, ends assumed
Baseline: no-protein control
Reading: higher = stronger binding
Shared flanks, not repeated: GGGAGUUCUACAGUCCGACGAUC … UGGAAUUCUCGGGUGCCAA
Target sequence (chain): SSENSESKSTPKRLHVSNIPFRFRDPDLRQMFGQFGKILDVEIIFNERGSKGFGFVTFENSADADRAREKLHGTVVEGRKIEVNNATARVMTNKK
Strand	RBNS enrichment (R)
AGAAGUUCCUCUGCCUGGAGCUGUCAUCUCAGCCGCUCCCUUAGAAAGUGCCCUUCAACGGACCCUGUUCACUGCUGCACUUCUCAAUGAAUUAAAACUGACUUCUGUUC	0.324
GUAUAAGGCAUCCUAACUUACAAGAGUAACUUUCCAUGGACAUUUAACAUCCUUCCAAUUUUAUUCACAUAUAAUGGGAAAUUUUGAAUUGCCAGUUUGAAGACUGUUCU	0.468
AAUAUUCUACUGUGACAUGAAAAGUUCCUGUAUUUUCAAAAACUUUUCUAUUAAAAUUGAUUUAACUAUAAGUUUUUUAAAGUUUUAAAUUAUUUCACACAUGAAUCACU	0.783
AGGACUUGAUCCUUCUCCAGGAAGAAGGUGCUUUCUGCUUACUGACUUAGGCAAUACACCAAGGGCGAGAUUUUAUAUGCACAUUUCUGGAUUUUUUUAUACGGUUUUCA	0.837
GGGUGGCUGGUUAAUAUCUCACACAGUUUGAAAAAUCAGCCCCUGGUUUCUCCAUGUUUACACUUCAAUCUGCAGGCUUCUUAAAGUGACAGUAUCCCUUAACCUGCCAC	0.355
CUCCUCAGUCGCAGGGGUGGGAUGUGAGUCAUGCGGAUUAUCCACUCGCCACAGUUAUCAGCUGCCAUUGCUCCCUGUCUGUUUCCCCACUCUCUUAUUUGUGCAUUCGG	0.725
UUGUGUGGUCACCAAGAGGACUGAGGACACAGUAGCCCUGAGCCAAGUUGGGCUCAUCUUCCAGGGAGCAAACCUAAAGCUGGCAGUCAGCCGCCCUGGCUAGAGGCCUG	0.377
AAGGAGGGGAGACCCCCACUCGCCUGCCUGCCUGCAUCACGGGGCCAUUGUGAGGUUGGGGGAAGACCUGGCCGUGGAGCUACAAGCUUGUGCGGAUGUCAGGGGACAUU	0.89

Study 2
Target: Sal-like protein 4, full length isoform A (SALL4, Homo sapiens, UniProt Q9UJQ4, residues 1-1053)
UniProt Q9UJQ4, sequence (whole entry, looked up): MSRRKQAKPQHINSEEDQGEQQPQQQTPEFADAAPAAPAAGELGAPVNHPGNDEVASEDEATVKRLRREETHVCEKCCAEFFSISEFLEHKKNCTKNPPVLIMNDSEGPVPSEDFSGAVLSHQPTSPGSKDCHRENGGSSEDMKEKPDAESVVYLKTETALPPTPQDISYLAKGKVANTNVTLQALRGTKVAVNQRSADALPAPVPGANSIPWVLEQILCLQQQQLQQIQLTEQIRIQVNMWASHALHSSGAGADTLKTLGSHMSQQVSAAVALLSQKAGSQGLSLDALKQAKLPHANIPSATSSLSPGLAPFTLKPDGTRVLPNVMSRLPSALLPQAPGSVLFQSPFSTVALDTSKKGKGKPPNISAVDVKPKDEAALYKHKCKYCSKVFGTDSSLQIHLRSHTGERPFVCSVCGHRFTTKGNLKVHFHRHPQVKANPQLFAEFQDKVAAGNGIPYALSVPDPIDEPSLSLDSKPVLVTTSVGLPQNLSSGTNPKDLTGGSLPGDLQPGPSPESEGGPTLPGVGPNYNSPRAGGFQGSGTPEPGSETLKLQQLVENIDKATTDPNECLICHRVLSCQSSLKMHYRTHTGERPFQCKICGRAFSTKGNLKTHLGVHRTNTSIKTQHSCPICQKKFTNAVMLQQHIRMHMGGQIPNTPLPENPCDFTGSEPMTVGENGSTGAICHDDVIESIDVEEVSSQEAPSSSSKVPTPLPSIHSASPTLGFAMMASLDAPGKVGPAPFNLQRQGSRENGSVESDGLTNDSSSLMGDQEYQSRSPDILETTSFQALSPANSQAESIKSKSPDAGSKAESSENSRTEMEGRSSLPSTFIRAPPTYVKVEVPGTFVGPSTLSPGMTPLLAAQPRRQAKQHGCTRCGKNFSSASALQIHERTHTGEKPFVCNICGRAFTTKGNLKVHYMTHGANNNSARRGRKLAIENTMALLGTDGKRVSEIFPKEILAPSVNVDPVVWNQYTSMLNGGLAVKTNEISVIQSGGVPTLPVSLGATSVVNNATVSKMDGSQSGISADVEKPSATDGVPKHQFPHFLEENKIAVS
Method: universal PBM
Molecule type: double-stranded DNA, one strand shown
Medium: in vitro
Tested at: 600 nM
Setting: 8-mer, flanks averaged, mean of replicates
Reading: higher = stronger binding
Strand	E-score
CTATACAA	0.24
GTCGTCAC	0.0423
GTAAGCGA	0.0654
CCAGTGTA	0.0397
ACCGAAGG	-0.0997
CGGCACCA	-0.249
GGCTCGTA	-0.0233
GCAGTAGC	-0.042
ATACTGAA	0.242
ATTGGGGC	-0.0737
ATCACACA	0.127
GCCAAAGA	-0.0418
ACTGAGGG	-0.195
AGACGACT	-0.078
ACTAGGAC	-0.0964
ATTAATCA	0.309
CCCCGTCG	-0.401
GGGGACCC	-0.44
GATCGTGA	-0.0441
ACCCGCAC	-0.275
AGCAGGCA	-0.169
AGTGCGGA	-0.154
GCCGGTAA	-0.168
ACTAGATA	0.29
ACTAAACG	-0.00577

Study 3
Target: Histone acetyltransferase KAT6A, winged helix 2, GST fusion (KAT6A, Homo sapiens, UniProt Q92794, residues 85-181)
Method: protein binding microarray
Molecule type: double-stranded DNA, one strand shown
Medium: in vitro
Tested at: not given
Setting: 8-mer, flanks averaged, mean of 2 arrays, mostly near background
Baseline: not given
Reading: higher = stronger binding
Construct (chain): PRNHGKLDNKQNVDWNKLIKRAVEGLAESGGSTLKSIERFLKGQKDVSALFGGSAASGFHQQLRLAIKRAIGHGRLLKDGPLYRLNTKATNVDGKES
Strand	E-score
GTAGAGCA	0.0646
CCCGATGC	0.175
AGTTACTC	0.0788
AAGCCAAC	0.0264
AGGTTAAC	-0.0614
AATTACAA	-0.179
CTAGTTTA	-0.0235
GACCACGA	0.0121
CACCGGTA	-0.0302
CTACTCGC	-0.101
GCCCGTTA	-0.0439
ATGAGTGA	-0.1
TATGCCGA	0.0368
CAGGATTA	0.00072
CCTGGTCA	-0.0667
CGGGTGGA	0.12
ACACTCTG	0.0428
GACTCCCA	-0.168
ACCCGGCT	0.257
ACACCAAT	-0.137
CTCCAATA	0.0551
CAACCCAA	-0.0972

Study 4
Target: PABPC1L2, full length, GST fusion (mouse, UniProt A0ABA7IW68)
Method: RNAcompete
Molecule type: RNA
Medium: in vitro
Tested at: 20 nM
Setting: 7-mer, probes averaged, single round
Baseline: mean of 7-mers
Reading: higher = stronger binding
Residues (chain): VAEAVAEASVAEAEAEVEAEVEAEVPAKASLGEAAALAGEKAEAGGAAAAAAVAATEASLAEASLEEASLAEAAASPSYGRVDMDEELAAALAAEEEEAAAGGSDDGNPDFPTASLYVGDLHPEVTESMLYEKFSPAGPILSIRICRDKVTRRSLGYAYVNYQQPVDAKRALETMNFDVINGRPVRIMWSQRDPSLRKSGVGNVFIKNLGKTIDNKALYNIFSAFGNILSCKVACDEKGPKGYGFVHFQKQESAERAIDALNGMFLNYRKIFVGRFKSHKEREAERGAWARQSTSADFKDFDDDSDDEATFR
Strand	7-mer Z-score
GGCUCCA	0.0442
UUAAUUU	-0.242
CAGUAAG	-0.0844
CAAACGA	0.327
GUCGUCC	-0.425
CGCAUCU	-0.318
AAUAGUG	0.126
AAGCUCG	-0.0772
AGCACUU	-0.0881
GGUUCUG	-0.186
AAUCCUA	-0.191
AAUACAA	1.14
AACGGCA	0.169
CACGAAU	-0.155
CCUUUAA	0.153
AUCCUCG	-0.393
CAGCGAA	0.0515
ACAAAUC	0.613
AAUUAGC	0.175
CACCCCA	-0.374
GAGUUGA	-0.0989

Repeated from above (study 2):
Strand	E-score
GATCGTGA	-0.0441
ACTGAGGG	-0.195
CTATACAA	0.24
ACTAGATA	0.29
ACTAAACG	-0.00577
ACCCGCAC	-0.275
GGGGACCC	-0.44
